Measured values from different studies.
Each numbered part is a random draw from the data of one study; scales do not carry over between parts. Values joined by “and” are separate records of one study, mostly repeats; a detail may differ.
UniProt P00519, sequence (whole entry, unmodified, looked up): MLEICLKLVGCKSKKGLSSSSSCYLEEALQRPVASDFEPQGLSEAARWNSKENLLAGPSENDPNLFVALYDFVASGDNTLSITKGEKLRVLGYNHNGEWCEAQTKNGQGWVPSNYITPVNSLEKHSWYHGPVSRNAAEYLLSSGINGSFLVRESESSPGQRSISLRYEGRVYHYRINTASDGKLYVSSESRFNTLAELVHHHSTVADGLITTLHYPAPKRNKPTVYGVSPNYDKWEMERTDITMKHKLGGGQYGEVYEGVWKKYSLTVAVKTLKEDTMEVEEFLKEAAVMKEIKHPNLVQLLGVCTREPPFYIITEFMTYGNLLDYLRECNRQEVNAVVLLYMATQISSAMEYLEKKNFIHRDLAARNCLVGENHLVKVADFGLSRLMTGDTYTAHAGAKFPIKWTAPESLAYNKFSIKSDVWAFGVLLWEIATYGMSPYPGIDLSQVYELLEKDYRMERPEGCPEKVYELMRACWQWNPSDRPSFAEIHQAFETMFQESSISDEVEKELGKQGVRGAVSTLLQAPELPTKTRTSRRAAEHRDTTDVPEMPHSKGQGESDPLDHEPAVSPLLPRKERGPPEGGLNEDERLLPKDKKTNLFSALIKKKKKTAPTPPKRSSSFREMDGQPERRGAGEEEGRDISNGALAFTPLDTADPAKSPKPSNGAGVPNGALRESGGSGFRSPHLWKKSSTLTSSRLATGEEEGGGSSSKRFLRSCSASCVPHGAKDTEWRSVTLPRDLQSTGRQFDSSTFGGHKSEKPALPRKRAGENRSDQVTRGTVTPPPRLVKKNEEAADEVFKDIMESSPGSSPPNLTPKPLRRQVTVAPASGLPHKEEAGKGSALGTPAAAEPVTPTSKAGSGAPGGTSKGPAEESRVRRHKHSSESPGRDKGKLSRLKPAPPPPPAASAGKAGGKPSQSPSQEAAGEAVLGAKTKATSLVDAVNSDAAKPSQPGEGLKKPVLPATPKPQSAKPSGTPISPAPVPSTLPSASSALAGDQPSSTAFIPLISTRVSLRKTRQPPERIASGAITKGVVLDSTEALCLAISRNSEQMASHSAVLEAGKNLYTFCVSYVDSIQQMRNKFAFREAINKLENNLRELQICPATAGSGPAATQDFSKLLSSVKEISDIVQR
UniProt Q96L34, sequence (whole entry, looked up): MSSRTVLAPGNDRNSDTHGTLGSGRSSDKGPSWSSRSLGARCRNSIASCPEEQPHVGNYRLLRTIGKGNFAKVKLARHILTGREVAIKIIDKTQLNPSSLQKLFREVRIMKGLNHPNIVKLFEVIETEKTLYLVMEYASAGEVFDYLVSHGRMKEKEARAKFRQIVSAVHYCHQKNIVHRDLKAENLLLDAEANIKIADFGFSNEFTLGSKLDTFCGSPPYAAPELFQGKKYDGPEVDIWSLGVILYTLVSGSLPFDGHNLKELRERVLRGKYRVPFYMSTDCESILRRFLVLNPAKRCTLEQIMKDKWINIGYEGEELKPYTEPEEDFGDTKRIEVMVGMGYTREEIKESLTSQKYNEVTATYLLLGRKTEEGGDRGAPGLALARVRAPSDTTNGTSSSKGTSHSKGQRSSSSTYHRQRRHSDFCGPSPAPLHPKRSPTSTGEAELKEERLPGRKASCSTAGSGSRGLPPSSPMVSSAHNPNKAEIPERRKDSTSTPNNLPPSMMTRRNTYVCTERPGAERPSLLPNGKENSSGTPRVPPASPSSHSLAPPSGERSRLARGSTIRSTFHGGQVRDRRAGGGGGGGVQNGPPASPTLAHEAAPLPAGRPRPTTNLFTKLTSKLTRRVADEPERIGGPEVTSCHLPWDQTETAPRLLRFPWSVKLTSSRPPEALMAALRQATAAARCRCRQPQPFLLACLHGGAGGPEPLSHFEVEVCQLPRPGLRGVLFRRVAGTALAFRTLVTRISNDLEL

Block 1 — effect on: cell-free assay; technique: competition with immobilised ligand; tested at: 1 µM
SMILES: Cc1cc(-n2nc(Cc3cc(F)cc(C(F)(F)F)c3)nc2C)ccc1C(N)=O
| target | remaining binding [%] |
| --- | --- |
| Dual specificity mitogen-activated protein kinase kinase 4 (MAP2K4, Homo sapiens, UniProt P45985) | 100 |
| Mitogen-activated protein kinase kinase kinase 3 (MAP3K3, Homo sapiens, UniProt Q99759) | 94 |
| Myotonin-protein kinase (DMPK, Homo sapiens, UniProt Q09013) | 100 |
| Inhibitor of nuclear factor kappa-B kinase subunit alpha (CHUK, Homo sapiens, UniProt O15111) | 100 |
| Bone morphogenetic protein receptor type-1B (BMPR1B, Homo sapiens, UniProt O00238) | 100 |
| Epidermal growth factor receptor (EGFR, Homo sapiens, UniProt P00533, del746-750) | 100 |
| LIM domain kinase 2 (LIMK2, Homo sapiens, UniProt P53671) | 95 |
| Ribosomal protein S6 kinase alpha-2, N-terminal kinase domain (RPS6KA2, Homo sapiens, UniProt Q15349) | 100 |
| Serine/threonine-protein kinase 10 (STK10, Homo sapiens, UniProt O94804) | 100 |
| Phosphatidylinositol 4,5-bisphosphate 3-kinase catalytic subunit alpha isoform (PIK3CA, Homo sapiens, UniProt P42336, Q546K) | 76 |
| Mitogen-activated protein kinase kinase kinase kinase 2 (MAP4K2, Homo sapiens, UniProt Q12851) | 100 |
| Serine/threonine-protein kinase TAO3 (TAOK3, Homo sapiens, UniProt Q9H2K8) | 83 |
| Epidermal growth factor receptor (EGFR, Homo sapiens, UniProt P00533, L858R) | 100 |
| Serine/threonine-protein kinase Nek5 (NEK5, Homo sapiens, UniProt Q6P3R8) | 77 |
| Cyclin-dependent kinase 17 (CDK17, Homo sapiens, UniProt Q00537) | 77 |
| Casein kinase II subunit alpha' (CSNK2A2, Homo sapiens, UniProt P19784) | 91 |
| Aurora kinase C (AURKC, Homo sapiens, UniProt Q9UQB9) | 100 |
| Mitogen-activated protein kinase kinase kinase 6 (MAP3K6, Homo sapiens, UniProt O95382) | 100 |
| Serine/threonine-protein kinase D3 (PRKD3, Homo sapiens, UniProt O94806) | 81 |
| Serine/threonine-protein kinase/endoribonuclease IRE1 (ERN1, Homo sapiens, UniProt O75460) | 100 |
| Phosphatidylinositol 4,5-bisphosphate 3-kinase catalytic subunit alpha isoform (PIK3CA, Homo sapiens, UniProt P42336, E542K) | 73 |
| MAP/microtubule affinity-regulating kinase 4 (MARK4, Homo sapiens, UniProt Q96L34) | 77 |
| Tyrosine-protein kinase ABL1, non-phosphorylated (ABL1, Homo sapiens, UniProt P00519, F317L) | 100 |
| Serine/threonine-protein kinase haspin (HASPIN, Homo sapiens, UniProt Q8TF76) | 100 |
| Ephrin type-A receptor 8 (EPHA8, Homo sapiens, UniProt P29322) | 100 |

Block 2 — tested at: 1 µM
SMILES: Cc1ccc(NC(=O)c2ccnc(C(F)(F)F)c2)cc1-c1cc(OCCO)nc(N2CCOCC2)c1
| target | assay | setting | scale | remaining binding |
| --- | --- | --- | --- | --- |
| Tyrosine-protein kinase TXK (TXK, Homo sapiens, UniProt P42681) | competitive binding panel |  | baseline: vehicle | 97% |
| Insulin receptor-related protein (INSRR, Homo sapiens, UniProt P14616) | competitive binding panel |  | baseline: vehicle | 82% |
| Tyrosine-protein kinase ABL1 (ABL1, Homo sapiens, UniProt P00519, E255K) | competitive binding panel |  | baseline: vehicle | 93% |
| SNF-related serine/threonine-protein kinase (SNRK, Homo sapiens, UniProt Q9NRH2) | competitive binding panel |  | baseline: vehicle | 100% |
| Phosphatidylinositol 4-phosphate 5-kinase type-1 gamma (PIP5K1C, Homo sapiens, UniProt O60331) | competitive binding panel |  | baseline: vehicle | 98% |
| Cyclin-dependent kinase 11A (CDK11A, Homo sapiens, UniProt Q9UQ88) | competitive binding panel, measured: CDC2L2 |  | baseline: vehicle | 49% |
| Epidermal growth factor receptor (EGFR, Homo sapiens, UniProt P00533, L858R/T790M) | competitive binding panel |  | baseline: vehicle | 84% |
| Macrophage colony-stimulating factor 1 receptor (CSF1R, Homo sapiens, UniProt P07333) | competitive binding panel |  | baseline: vehicle | 93% |
| MAP/microtubule affinity-regulating kinase 4 (MARK4, Homo sapiens, UniProt Q96L34) | competitive binding panel |  | baseline: vehicle | 100% |
| Glycogen synthase kinase-3 alpha (GSK3A, Homo sapiens, UniProt P49840) | competitive binding panel |  | baseline: vehicle | 100% |
| Phosphorylase b kinase gamma catalytic chain, skeletal muscle/heart isoform (PHKG1, Homo sapiens, UniProt Q16816) | competitive binding panel |  | baseline: vehicle | 100% |
| Tyrosine-protein kinase Mer (MERTK, Homo sapiens, UniProt Q12866) | competitive binding panel |  | baseline: vehicle | 89% |
| Epidermal growth factor receptor (EGFR, Homo sapiens, UniProt P00533, del752-759) | competitive binding panel |  | baseline: vehicle | 88% |
| Membrane-associated tyrosine- and threonine-specific cdc2-inhibitory kinase (PKMYT1, Homo sapiens, UniProt Q99640) | competitive binding panel |  | baseline: vehicle | 93% |
| Casein kinase I isoform gamma-3 (CSNK1G3, Homo sapiens, UniProt Q9Y6M4) | competitive binding panel |  | baseline: vehicle | 100% |
| Angiopoietin-1 receptor (TEK, Homo sapiens, UniProt Q02763) | competitive binding | TIE2 |  | 86% |
| Tyrosine-protein kinase receptor Tie-1 (TIE1, Homo sapiens, UniProt P35590) | competitive binding panel |  | baseline: vehicle | 33% |

Block 3 — effect on: enzyme activity; action: inhibitor; tested at: 0.5 µM; baseline: control
Target: Proto-oncogene tyrosine-protein kinase Src (SRC, Homo sapiens, UniProt P12931)
| Structure (SMILES) | remaining activity [%] |
| --- | --- |
| CC(C)N(CCC(=O)c1ccc2ccccc2c1)Cc1ccccc1 | 93.2 |
| NC(=O)c1ccc(-c2nc(-c3ccc4c(c3)OCCO4)c(-c3ccccn3)[nH]2)cc1 | 91.1 |
| c1cc(-c2cnn3cc(-c4ccc(OCCN5CCCCC5)cc4)cnc23)ccn1 | 5.82 |
| N#CC(c1ccnc(NCCc2cccnc2)n1)c1nc2ccccc2s1 (centres unmarked) | 86.8 |
| Clc1ccc(Nc2nnc(Cc3ccncc3)c3ccccc23)cc1 | 104 |
| O=c1c(-c2ccc(F)cc2)c(-c2ccncc2)[nH]n1-c1ccc(Cl)cc1 | 91.6 |
| N#C/C(=C(/N)SC1C=CC=CC1)c1cccc(C(O)c2ccncc2)c1 (centres unmarked) | 93.1 |
| O=C(c1ccccc1)c1ccc(N2CCOCC2)cc1O | 97.8 |
| O=Nc1c(-c2c(O)[nH]c3ccccc23)[nH]c2ccccc12 | 65.1 |
| NC(=O)c1cccc(-c2cc(Nc3ccc(OC(F)(F)F)cc3)ncn2)c1 | 97 |
| CC(C)(C)c1nc2c3cc[nH]c(=O)c3c3cc(F)ccc3c2[nH]1 | 93.4 |
| CCN(CC)CCCCN1c2ccccc2Oc2ccc(Cl)cc21 | 106 |
| CCCCc1c(-c2ccc(O)cc2)[nH]c2nccnc12 | 65.2 |
| CNc1cc2c(Nc3cccc(Br)c3)ncnc2cn1 | 94.6 |
| Nc1nc(Nc2ccc(S(N)(=O)=O)cc2)nn1C(=S)Nc1c(F)cccc1F | 41.6 |
| O=C1NC(=O)/C(=C/c2ccc3c(c2)OC(F)(F)O3)S1 | 98.4 |
| O=C1c2ccccc2-c2nc3nnnn3nc21 | 80.4 |
| C[C@@H](N)[C@H]1CC[C@H](C(=O)Nc2ccncc2)CC1 | 107 |
| O=C(O)/C=C/c1cc(Br)c(Br)c(Br)c1Br | 88.8 |
| COc1cc2c(N3CCN(C(=O)Nc4ccc(OC(C)C)cc4)CC3)ncnc2cc1OCCCN1CCCCC1 | 102 |
| FC(F)(F)c1ccc(/C=C/c2nc(COc3ccc(CCCCn4ccnn4)cc3)co2)cc1 | 92.5 |

Block 4 — effect on: enzyme activity; action: inhibitor; tested at: 77 µM; baseline: untreated
Target: DNA polymerase theta, ATPase domain (POLQ, Homo sapiens, UniProt O75417)
UniProt O75417, sequence (whole entry, unmodified, looked up): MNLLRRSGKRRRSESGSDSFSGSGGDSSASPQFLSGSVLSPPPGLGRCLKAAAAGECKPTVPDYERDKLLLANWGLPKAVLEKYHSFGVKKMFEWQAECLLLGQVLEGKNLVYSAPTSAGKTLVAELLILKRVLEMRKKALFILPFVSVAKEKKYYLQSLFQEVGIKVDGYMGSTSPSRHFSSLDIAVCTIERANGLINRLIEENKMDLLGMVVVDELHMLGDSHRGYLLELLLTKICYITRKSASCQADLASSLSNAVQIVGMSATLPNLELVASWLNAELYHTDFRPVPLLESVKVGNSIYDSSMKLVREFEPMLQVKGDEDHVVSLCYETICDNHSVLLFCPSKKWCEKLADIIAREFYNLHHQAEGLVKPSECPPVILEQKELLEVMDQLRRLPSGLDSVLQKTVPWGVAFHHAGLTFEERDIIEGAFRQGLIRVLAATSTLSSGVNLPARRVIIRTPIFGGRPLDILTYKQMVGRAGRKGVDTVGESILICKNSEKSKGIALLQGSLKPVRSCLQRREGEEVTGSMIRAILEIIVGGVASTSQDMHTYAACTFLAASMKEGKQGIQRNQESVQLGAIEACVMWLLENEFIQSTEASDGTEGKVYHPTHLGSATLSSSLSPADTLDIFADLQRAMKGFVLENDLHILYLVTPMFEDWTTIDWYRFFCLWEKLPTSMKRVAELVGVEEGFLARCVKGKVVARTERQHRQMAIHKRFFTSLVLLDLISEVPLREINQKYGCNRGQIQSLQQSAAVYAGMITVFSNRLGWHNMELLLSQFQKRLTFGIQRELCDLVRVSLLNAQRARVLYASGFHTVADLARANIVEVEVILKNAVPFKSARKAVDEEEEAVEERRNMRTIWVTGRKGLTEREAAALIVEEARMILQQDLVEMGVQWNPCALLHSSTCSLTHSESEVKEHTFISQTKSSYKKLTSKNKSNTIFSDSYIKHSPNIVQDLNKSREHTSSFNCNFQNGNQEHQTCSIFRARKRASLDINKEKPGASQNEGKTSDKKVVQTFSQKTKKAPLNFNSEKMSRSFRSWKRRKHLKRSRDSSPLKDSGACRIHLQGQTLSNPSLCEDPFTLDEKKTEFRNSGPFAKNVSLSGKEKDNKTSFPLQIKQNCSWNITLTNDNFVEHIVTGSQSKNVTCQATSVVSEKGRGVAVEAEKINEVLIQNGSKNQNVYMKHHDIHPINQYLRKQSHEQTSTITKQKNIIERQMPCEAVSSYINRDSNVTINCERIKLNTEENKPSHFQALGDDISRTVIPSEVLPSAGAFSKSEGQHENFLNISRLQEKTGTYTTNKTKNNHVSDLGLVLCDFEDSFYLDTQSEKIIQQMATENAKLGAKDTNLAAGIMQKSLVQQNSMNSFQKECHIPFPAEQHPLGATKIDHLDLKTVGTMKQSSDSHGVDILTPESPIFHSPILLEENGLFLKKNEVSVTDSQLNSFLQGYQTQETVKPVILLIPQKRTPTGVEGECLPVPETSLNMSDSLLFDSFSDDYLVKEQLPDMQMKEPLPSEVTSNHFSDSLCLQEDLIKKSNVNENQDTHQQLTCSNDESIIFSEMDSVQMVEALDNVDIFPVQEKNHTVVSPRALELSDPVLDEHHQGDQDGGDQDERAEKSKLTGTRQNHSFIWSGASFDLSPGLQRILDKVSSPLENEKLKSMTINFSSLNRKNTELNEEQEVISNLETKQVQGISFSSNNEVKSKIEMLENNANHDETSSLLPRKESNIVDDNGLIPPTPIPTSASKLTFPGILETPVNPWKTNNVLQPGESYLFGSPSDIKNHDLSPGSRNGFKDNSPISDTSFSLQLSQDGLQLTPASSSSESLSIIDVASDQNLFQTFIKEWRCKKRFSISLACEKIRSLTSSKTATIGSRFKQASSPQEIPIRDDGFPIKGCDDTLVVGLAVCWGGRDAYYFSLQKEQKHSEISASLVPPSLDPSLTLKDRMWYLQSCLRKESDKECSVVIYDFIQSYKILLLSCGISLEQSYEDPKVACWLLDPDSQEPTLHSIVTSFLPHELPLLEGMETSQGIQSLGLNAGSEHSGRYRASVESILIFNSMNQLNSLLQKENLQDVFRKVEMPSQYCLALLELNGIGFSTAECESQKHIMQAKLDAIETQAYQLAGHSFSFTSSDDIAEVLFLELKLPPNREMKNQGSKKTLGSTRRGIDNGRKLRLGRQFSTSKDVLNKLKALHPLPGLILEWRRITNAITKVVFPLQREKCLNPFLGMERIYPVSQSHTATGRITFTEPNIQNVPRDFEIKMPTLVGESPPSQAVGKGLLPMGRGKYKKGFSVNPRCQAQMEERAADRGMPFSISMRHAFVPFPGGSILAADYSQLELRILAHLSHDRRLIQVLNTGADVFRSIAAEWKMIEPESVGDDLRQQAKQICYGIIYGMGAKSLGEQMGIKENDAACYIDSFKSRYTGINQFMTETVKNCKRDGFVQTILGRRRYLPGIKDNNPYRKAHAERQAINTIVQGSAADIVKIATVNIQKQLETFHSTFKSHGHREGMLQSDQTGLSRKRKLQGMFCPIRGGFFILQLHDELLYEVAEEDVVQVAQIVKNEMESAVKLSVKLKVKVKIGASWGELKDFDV
| SMILES | remaining activity |
| --- | --- |
| CN(C)[C@@H]1C(O)=C(C(N)=O)C(=O)[C@@]2(O)C(O)=C3C(=O)c4c(O)cccc4[C@@](C)(O)[C@H]3[C@H](O)[C@@H]12 | 100% |
| C=CCc1ccc(O)c(-c2cc(CC=C)ccc2O)c1 | 92% |
| O=c1cc(-c2cccc3c2Sc2ccccc2S3)oc(N2CCOCC2)c1 | 98.7% and 97.5% and 102% and 86.7% |
| O=C(N[C@H](CO)[C@H](O)c1ccc([N+](=O)[O-])cc1)C(Cl)Cl | 102% and 90.8% |
| O=C1NC(=O)c2c1c(-c1ccccc1Cl)cc1[nH]c3ccc(O)cc3c21 | 99.2% |
| Cc1cc(NC(=O)Nc2ccc(N(C)C)cc2)c2cc(F)cc(F)c2n1 | 77.8% |
| O=[N+]([O-])c1ccc(CSc2ncnc3c2ncn3[C@@H]2O[C@H](CO)[C@@H](O)[C@H]2O)cc1 | 102% |
| O=c1oc(Cl)c(Cl)c2ccccc12 | 99.3% |
| CCCCCCCCN[C@@H](C)[C@H](O)c1ccc(SC(C)C)cc1 (racemic) | 96.5% |
| O=C(CSc1nc2c(c(=O)n1-c1ccccc1)SCC2)Nc1ccc(-c2ccccc2)cn1 | 99.6% |
| CCCCC(CC)CN1CN(CC(CC)CCCC)CC(C)(N)C1 (centres unmarked) | 87.1% |

Some of these lines once more (block 1):
| target | remaining binding [%] |
| --- | --- |
| Phosphatidylinositol 4,5-bisphosphate 3-kinase catalytic subunit alpha isoform (PIK3CA, Homo sapiens, UniProt P42336, E542K) | 73 |
| Bone morphogenetic protein receptor type-1B (BMPR1B, Homo sapiens, UniProt O00238) | 100 |
| Mitogen-activated protein kinase kinase kinase kinase 2 (MAP4K2, Homo sapiens, UniProt Q12851) | 100 |
| Serine/threonine-protein kinase TAO3 (TAOK3, Homo sapiens, UniProt Q9H2K8) | 83 |
| Tyrosine-protein kinase ABL1, non-phosphorylated (ABL1, Homo sapiens, UniProt P00519, F317L) | 100 |
| LIM domain kinase 2 (LIMK2, Homo sapiens, UniProt P53671) | 95 |
